Published values pooled from the literature.
Compare with care: the assays were run in different laboratories. Several values in a cell are separate wells, animals, samples, runs or records. ± gives the spread as reported.

Cc1nc(Nc2ccc(CC(=O)O)cc2)nc(Nc2ccc(F)c(C(F)(F)F)c2)c1C  glucose tolerance AUC (C57BL/6J mouse, high-fat diet MASH model; intraperitoneal, 0.3 mg/kg daily, 60% fat diet for 12 weeks, dosed final four weeks, together with: glucose 2 g/kg ip; relative to: untreated): decreased
CCCCCN1C[C@H](O)[C@@H](O)[C@H](O)[C@@H]1CO  survival extension (Hexb-/- mouse; dose not given; relative to: untreated): 22%
C=CC(=O)Nc1cc(Nc2ncc(Cl)c(Nc3ccccc3C(=O)C(=O)N(C)C)n2)c(OC)cc1N1CCN(C)CC1  patients with complete response (RECIST v1.1 best response; human EGFR T790M NSCLC; oral, 25 mg/day, per-protocol set): 0%
CC[C@H](C)[C@H](NC(=O)[C@H](CCC(=O)O)NC(=O)[C@H](CCCNC(=N)N)NC(=O)[C@H](CCCNC(=N)N)NC(=O)[C@H](CCCNC(=N)N)NC(=O)[C@H](CCC(N)=O)NC(=O)[C@H](CCCNC(=N)N)NC(=O)[C@H](CCCNC(=N)N)NC(=O)[C@H](CCCCN)NC(=O)[C@H](CCCCN)NC(=O)[C@H](CCCNC(=N)N)NC(=O)CNC(=O)[C@H](Cc1ccc(O)cc1)NC(C)=O)C(=O)N[C@@H](CC(=O)O)C(=O)N[C@@H](Cc1c[nH]cn1)C(=O)N[C@@H](CC(=O)O)C(N)=O  RAGE-RIPK1 interaction (co-immunoprecipitation; db/db mouse, hippocampus; intravenous, dose not given, 6 weeks, weekly): decreased
CCCCCCCCCCCCCCCC(=O)N[C@H]1C[C@@H](O)[C@@H](O)NC(=O)[C@@H]2[C@@H](O)[C@@H](C)CN2C(=O)[C@H]([C@@H](C)O)NC(=O)[C@H]([C@H](O)[C@@H](O)c2ccc(O)cc2)NC(=O)[C@@H]2C[C@@H](O)CN2C(=O)[C@H]([C@@H](C)O)NC1=O  fusion time constant (calcein leakage; DOPC/DOPG/CHOL liposomes; concentration not given, together with: 20 wt% PEG-8000): 68 ± 14 min
COc1ccc(CCC2CCCC(CCc3ccc(OC)cc3)N2C[C@@H](O)CO)cc1.Cl (stereo in doubt)  DOPAC overflow (rat striatal slices; 30 µM, 30 min, no methamphetamine): 621 ± 184 pg/30 mL/mg
N#CN=C(NCCCc1c[nH]cn1)NCC1CC1  ED50 (antinociception, hot plate test; rat; intracerebroventricular, 5 min): 86.6 nmol
O=C(O)/C=C/C(=O)O.Oc1cccc2[nH]cc(CCNCc3ccccc3)c12  body temperature change (C57BL/6J mice; subcutaneous, 3 mg/kg; relative to: pre-session baseline): -0.1 ± 0.1 °C
C[C@]1(CO)Cc2ncn(-c3ccc(C#N)c(Cl)c3)c2C(=O)O1  urinary excretion (aldosterone synthesis, inhibitor, item: potassium; healthy Japanese adults, urine; 3 mg, 0-24 h at steady state, multiple rising dose): 37.1 mmol
CCCCC1(CCCC)CN(c2ccccc2)c2cc(SC)c(OCC(=O)N[C@@H](C(=O)NCC(=O)O)c3ccccc3)cc2S(=O)(=O)C1  serum LDL-C (item: LDL cholesterol; human, serum; 2.5 mg once daily, day 9): 99.3 mg/dL
O=S(=O)(O)C(F)(F)C(F)(F)C(F)(F)C(F)(F)F  gene expression (RNA-seq pathway analysis, item: fatty acid β-oxidation genes; liver spheroids; top non-cytotoxic, 10 d): increased
Cc1cn([C@H]2O[C@@H](CO[P@@](=O)(N[C@@H](C)C(=O)OC(C)C)Oc3ccccc3)[C@H](O)[C@H]2F)c(=O)[nH]c1=O  change in HBV DNA (adults with chronic hepatitis B; 10 mg, day 28; relative to: baseline): 2.78 log10 IU/mL
C=CCN1CC[C@]23c4c5ccc(O)c4O[C@H]2C(=O)CC[C@@]3(O)[C@H]1C5  tail-flick latency (B6SJL mice; 4 mg/kg, compound alone): no effect
CCCCCCCCCC(=O)N[C@@H](Cc1c[nH]c2ccccc12)C(=O)N[C@H](CC(N)=O)C(=O)N[C@@H](CC(=O)O)C(=O)N[C@@H]1C(=O)NCC(=O)N[C@@H](CCCN)C(=O)N[C@@H](CC(=O)O)C(=O)N[C@H](C)C(=O)N[C@@H](CC(=O)O)C(=O)NCC(=O)N[C@H](CO)C(=O)N[C@@H]([C@H](C)CC(=O)O)C(=O)N[C@@H](CC(=O)c2ccccc2N)C(=O)O[C@@H]1C  fusion time constant (calcein leakage; DOPC/CHOL liposomes; concentration not given, together with: 20 wt% PEG-8000): 11 ± 3 min
Cc1cccc(C)c1NC(=O)C1CCCCN1 (centres unmarked)  motor block duration (Sprague-Dawley rat, male, sciatic nerve; 30 mM): 13 min and 10 min
Cn1ncc(-c2nc(N[C@H]3CC[C@H](N)CC3)ncc2Cl)c1CC1CC1  CR/CRi rate (phase I clinical trial; R/R AML or high-risk MDS patients, RUNX1-mutated; 11 mg or higher): 30%
CC[C@H](C)[C@@H]1NC(=O)[C@@H]2CCCN2C(=O)[C@H](CC(C)C)NC(=O)[C@H](CC(C)C)NC(=O)CNC(=O)[C@@H](NC(=O)[C@@H](NC(=O)[C@H](CC(=O)O)NC(=O)CNC(=O)[C@@H](NC(=O)[C@H](C)NC(=O)CNC(=O)[C@H](CCCCN)NC(=O)[C@H](CC(C)C)NC(=O)[C@H](CC(C)C)NC(=O)[C@H](CCCCN)NC(=O)CNC(=O)[C@@H](NC(=O)[C@@H](N)CC(C)C)C(C)C)C(C)C)C(C)C)CSSC[C@@H](C(=O)O)NC1=O  log2 fold change (RNA-seq, item: Cd2; mouse, traumatic brain injury model, frontal cortex and hippocampus; dose not given; relative to: TBI alone): -5.21
C[C@H]1O[C@@H](O[C@H]2CC[C@@]3(C)[C@@H](CC[C@]4(C)[C@@H]3C=C[C@]35OC[C@@]6(CCC(C)(C)C[C@H]63)[C@@H](O)C[C@]54C)[C@]2(C)CO)[C@H](O)[C@@H](O[C@@H]2O[C@H](CO)[C@@H](O)[C@H](O)[C@H]2O)[C@H]1O  NAD+/NADH ratio (mouse, chronic-plus-binge ethanol, hepatic SIRT1 knockdown, liver; dose not given, high dose): 2.2 and 2.36 and 2.65 and 2.28
CCC(C)N(C)C(=O)c1cc2ccccc2c(-c2ccccc2Cl)n1 (centres unmarked)  maximum inhibition (human coronavirus OC43; virus-induced cell killing; MRC-5; screen): 13.8%
Cc1cn(-c2cc(NC(=O)c3ccc(C)c(Nc4nccc(-c5cccnc5)n4)c3)cc(C(F)(F)F)c2)cn1  CDR-SOB score (Alzheimer's disease patients; 300 mg, 12 months, group mean; direction not given): 7.9 ± 3
CN1CCN(S(=O)(=O)c2cc([N+](=O)[O-])ccc2N(CCOS(C)(=O)=O)CCOS(C)(=O)=O)CC1  T-C (NSG mice, T-ALL PDX sample E; intraperitoneal, 25 mg/kg, single mouse trial): > 264 days
C=CCNc1c(O)cc2c(O)c1C[C@@H](C)C[C@H](OC)[C@H](O)[C@@H](C)/C=C(\C)[C@H](OC(N)=O)[C@@H](OC)/C=C\C=C(/C)C(=O)N2  discontinuation due to progressive disease (patients with STS, GIST or other tumours; dose not given): 48%
CC(C)CC(=O)Nc1[nH]nc2c1CN(C(=O)C1CCN(C)CC1)C2(C)C  maximum inhibition (human coronavirus OC43; virus-induced cell killing; MRC-5; maximum over 10 doses): 0%

Some of these lines once more:
C=CCN1CC[C@]23c4c5ccc(O)c4O[C@H]2C(=O)CC[C@@]3(O)[C@H]1C5  tail-flick latency (B6SJL mice; 4 mg/kg, compound alone): no effect
Cc1cn([C@H]2O[C@@H](CO[P@@](=O)(N[C@@H](C)C(=O)OC(C)C)Oc3ccccc3)[C@H](O)[C@H]2F)c(=O)[nH]c1=O  change in HBV DNA (adults with chronic hepatitis B; 10 mg, day 28; relative to: baseline): 2.78 log10 IU/mL
C[C@]1(CO)Cc2ncn(-c3ccc(C#N)c(Cl)c3)c2C(=O)O1  urinary excretion (aldosterone synthesis, inhibitor, item: potassium; healthy Japanese adults, urine; 3 mg, 0-24 h at steady state, multiple rising dose): 37.1 mmol
C=CCNc1c(O)cc2c(O)c1C[C@@H](C)C[C@H](OC)[C@H](O)[C@@H](C)/C=C(\C)[C@H](OC(N)=O)[C@@H](OC)/C=C\C=C(/C)C(=O)N2  discontinuation due to progressive disease (patients with STS, GIST or other tumours; dose not given): 48%
